# Experimental data from different studies.
# Protocols differ between the studies behind these lines. “And” joins repeats or separate records; there may be more than shown. ± gives the spread as reported.
# blaNDM-1: Metallo-beta-lactamase type 2 (blaNDM-1, Klebsiella pneumoniae, UniProt C7C422)
Structure (SMILES),target,assay,system,conditions,how to read,measurement,result
CC(=O)N[C@@H](CO)C(=O)N[C@@H](Cc1ccccc1)C(=O)N[C@@H](CCC(=O)O)C(=O)N[C@@H](Cc1ccccc1)C(=O)N1CCC[C@H]1C(=O)N1CCC[C@H]1C(=O)N1CCC[C@H]1C(=O)N1CCC[C@H]1C(=O)N[C@H](C(=O)N[C@@H](CCC(=O)O)C(=O)N[C@@H](CC(=O)O)C(=O)N[C@@H](CCC(=O)O)C(=O)N[C@@H](CC(C)C)C(N)=O)[C@@H](C)O,"Vasodilator-stimulated phosphoprotein, EVH1 domain (VASP, Homo sapiens, UniProt P50552)",fluorescence titration,,25 °C,,binding free energy,-26.9 kJ/mol
O=C(Nc1cccnn1)N1CCC(=Cc2cccc(Oc3ccc(C(F)(F)F)cn3)c2)CC1,"GABBR1 (Homo sapiens, UniProt Q9UBS5)",radioligand binding,,"50 µM, together with: [3H]CGP-54626",,inhibition of binding,19%
CN1CCN(c2cc(-c3ccncc3)c(-c3ccc4ccccc4c3)nn2)CC1,"CCKAR (Homo sapiens, UniProt P32238)","antagonist, FLIPR",,10 µM,,inhibition,21.1%
C[C@H]1CCC/C=C/[C@@H]2C[C@H](O)C[C@H]2[C@H](O)/C=C/C(=O)O1,"Protein transport protein Sec61 subunit alpha isoform 1 (Homo sapiens, UniProt P61619)","Sec61-dependent translocation, inhibitor, measured: CD4 signal peptide-FLuc reporter",HEK293,concentration not given,reference: mock,FLuc/RLuc ratio,0.976
COc1ccc(N2C(=O)N(c3c(C)cccc3Cl)Cc3cnc(Nc4ccc(C5CCN(C)CC5)cc4OC)nc32)nc1,"CIT (Homo sapiens, UniProt O14578)","kinase activity, inhibitor",,"0.5 µM, kinase CRIK",,inhibition,2.19%
[Cl][Cd][Cl],"Voltage-dependent P/Q-type calcium channel subunit alpha-1A (Homo sapiens, UniProt O00555)","channel activity, antagonist",human cells,,,IC50,780 nM
CN(C(=O)n1cnc(-c2ccc[n+]([O-])c2)c1)C1CCCCC1,"CHUK (Homo sapiens, UniProt O15111)",enzyme activity,,50 µM,,inhibition,1%
CO[P@@](=O)(Oc1ccccc1)OC1CCCCC1,"had (Sphingobium sp. TCM1, UniProt A0A077JBW9)",,,,,Km,170 ± 20 µM
O=C(O)c1cccc(C(=O)O)n1,blaNDM-1,"enzyme activity, inhibitor",,together with: nitrocefin,,koff,0.26 ± 0.02 min⁻¹
C[N+](C)(C)CCOS(=O)(=O)[O-],SAR11_0797 protein (Candidatus Pelagibacter ubique),isothermal titration calorimetry,,concentration not given,,binding,no binding
COc1cc2nccc(Oc3ccc(NC(=O)c4cc5c(n(-c6ccccc6)c4=O)CCCC5=O)nc3)c2cc1OC,"SRC (Homo sapiens, UniProt P12931)","cell viability, CellTiter-Glo",Ba/F3 expressing recombinant kinase,,reference: SRC IC50 over AXL IC50,selectivity ratio,> 100
CC(C)(C)C(=O)C1C(=O)c2ccccc2C1=O,"Nuclear receptor subfamily 1 group I member 3 (Homo sapiens, UniProt Q14994)",,,concentration not given,,activity,inactive
[2H]c1c([2H])c([C@]2([2H])CCCN2C(=O)C(C)(C)Oc2ccc3cn[nH]c3c2)c([2H])c([2H])c1C([2H])([2H])[2H],"NUAK2 (Homo sapiens, UniProt Q9H093)",KINOMEscan,,1 µM,reference: DMSO control,remaining binding,100%
N[C@@H](Cc1ccc(O)cc1)C(=O)O,"Iodotyrosine deiodinase (Haliscomenobacter hydrossis, UniProt F4KU78)","binding, fluorescence",,,"reference: iodotyrosine over compound, higher = weaker than iodotyrosine",affinity ratio,≥ 100 fold
CNC(=O)[C@H]1[Se][C@@H](n2cnc3c(NCc4cccc(I)c4)ncnc32)[C@H](O)[C@@H]1O,"ADORA3 (Homo sapiens, UniProt P0DMS8)",radioligand binding,,,reference: Ki A2A over Ki A3,selectivity ratio,1900 fold
O=C1CC(C(=O)O)NC(=O)N1 (stereo not drawn),"Dihydroorotate dehydrogenase A (fumarate) (pyrDA, Lactococcus lactis subsp. cremoris, UniProt A2RJT9, C130S/L71F/V133T)",substrate,Lactococcus lactis,"concentration not given, 25 °C",,flavin reduction rate,9.7e-06 ± 3e-07 s⁻¹
C[N+](C)(C)CCOC(N)=O,"Chrnd/Chrna1/Chrne (Mus musculus, UniProt P02716+P04756+P20782)",end-plate depolarization,mouse end-plate,"range 5 to 40 µM, no d-tubocurarine",,log-log slope,1.5
CC[C@H](C)[C@H](NC(=O)[C@@H](NC(=O)[C@H](CC(C)C)NC(=O)[C@H](CC(N)=O)NC(=O)[C@H](CC(=O)O)NC(=O)[C@H](CCC(=O)O)NC(=O)[C@@H](NC(=O)[C@@H](N)CCCNC(=N)N)[C@@H](C)CC)C(C)C)C(=O)N[C@H](C(=O)N[C@@H](CCCNC(=N)N)C(=O)O)[C@@H](C)CC,"Epithelial sodium channel subunit gamma (Homo sapiens, UniProt P51170)","binding, bio-layer interferometry",,,,koff,1.22 min⁻¹
CC(=O)N[C@H](C(=O)N1C[C@H](O)C[C@H]1C(=O)NCc1ccc(-c2scnc2C)cc1)C(C)(C)SCCCCCCNC(=O)C[C@@H]1N=C(c2ccc(Cl)cc2)c2c(sc(C)c2C)-n2c(C)nnc21,"Bromodomain-containing protein 4, BD2 (BRD4, Homo sapiens, UniProt O60885, A384K/E383V/K378Q)",ITC,,"25 °C, BD2 mutant, binary",,ΔH,-10.9 ± 0.9 kcal/mol
c1cncc([C@@H]2CCCN2)c1,"Chrnd/Chrna1/Chrne (Mus musculus, UniProt P02716+P04756+P20782, G173K/S470W)","ligand binding, agonist, single-channel kinetics",,chain K,reference: wild type over mutant,affinity ratio,1.4
Cl.Cn1c(=O)n(CCCCN2CCC3(CC2)OCc2ccccc23)c2ccccc21,"Slc6a4 (Rattus norvegicus, UniProt P31652)",[3H]paroxetine binding,rat midbrain membranes,,reference: DAT Ki over SERT Ki,selectivity ratio,~10 fold
O=C(Nc1cnccc1Cl)N1CCN(Cc2ccc3c(c2)OC(F)(F)O3)CC1,"MAOA (Homo sapiens, UniProt P21397)","enzyme activity, inhibitor",,"10 µM, human, together with: kynuramine substrate",,inhibition,4%
O=C(c1ccc(Cl)cc1)N1CCN2C(=O)N(OC(=O)N3CCOc4ccccc43)C(=O)C2C1 (stereo not drawn),"Probable serine carboxypeptidase CPVL (CPVL, Homo sapiens, UniProt Q9H3G5)","enzyme activity, inhibitor, MS-based ABPP",SW-620 in situ,"10 µM, 2 h, 37 °C","reference: compound over DMSO, lower = stronger inhibition",median ratio,1.09
CC12CCC(CC1)C(C)(C)O2,"1,8-cineole 2-endo-monooxygenase (cinA, Citrobacter braakii, UniProt Q8VQF6, N242A)","substrate, GC-MS",,"0 to 2 min, N242A enzyme variant",,product formation rate,29 ± 3 min⁻¹
O=C(O)Cc1c[nH]c2ccccc12,"Germin-like protein subfamily 3 member 1 (GLP1, Arabidopsis thaliana, UniProt P94040, H100A/H102A)",microscale thermophoresis,Arabidopsis protoplast extract,"concentration not given, Flag-tagged mutant",,binding,no binding
COC(=O)[C@@]1(O)C[C@H]2O[C@]1(C)n1c3ccccc3c3c4c(c5c6ccccc6n2c5c31)C(=O)NC4,"MAPK3 (Homo sapiens, UniProt P27361)",ADP-Glo,,"8.45 µM, together with: substrate MBP",,remaining activity,116%
Cc1nn(C)cc1-c1nc2c(N3CCN(Cc4ccc(Cl)cc4)CC3)c(Cl)cnc2[nH]1,"RET (Homo sapiens, UniProt P07949, M918T)",KINOMEscan,,1 µM,reference: DMSO control,remaining binding,2%
C[C@@H](O)[C@H](NC(=O)c1ccc(C#Cc2ccccc2)cc1)C(=O)NO,"UDP-3-O-acyl-N-acetylglucosamine deacetylase (Pseudomonas aeruginosa, UniProt P47205, C40S)",ITC,,"concentration not given, 298 K",,ΔS of binding,0.0715 kJ/(mol·K)
COc1ccc(-c2ccc(CNC3(C(=O)NO)CCS(=O)(=O)CC3)cc2)c(F)c1,"UDP-3-O-acyl-N-acetylglucosamine deacetylase (Pseudomonas aeruginosa, UniProt P47205)",fluorescence,,37 °C,,residence time,~30 min and 32 min
C[C@H]1CN(c2n[nH]c3nc(N[C@H]4CC[C@H](NS(=O)(=O)CCC(F)(F)F)CC4)ncc23)CCO1,"DYNC1H1 (Homo sapiens, UniProt Q14204)","inhibitor, Kinobeads competition profiling",,0.8 µM,reference: vehicle,relative abundance,1.05
CCN(CC)CCCC[C@H](NC(=O)[C@H](CC(C)C)NC(=O)[C@H](C)NC(=O)[C@H](Cc1ccccc1)NC(=O)c1ccc(C(C)(C)C)cc1)C(=O)N[C@@H](CO)C(=O)OC,"Htr1b (Rattus norvegicus, UniProt P28564)",radioligand binding,,10 µM,reference: control,specific binding,111%
O=C(O)c1cc[c]([Hg][Cl])cc1,blaNDM-1,inhibitor,,,,Hill coefficient,1.7
O=C(O)COP(=O)(O)O,"TPI1 (Saccharomyces cerevisiae, UniProt P00942, Y208F)","enzyme activity, competitive inhibitor, GPDH/NADH-coupled",,"pH 9.3, 25 °C, ionic strength 0.1 NaCl, together with: glyceraldehyde 3-phosphate substrate",reference: mutant over wild type,Ki ratio,12
O=P(O)(O)OC[C@H]1C[C@@](O)(CO)[C@@H](O)[C@H](O)[C@@H]1O,"valA (Streptomyces hygroscopicus, UniProt H2K887)",phosphate release,,100 µM,,apparent Vmax,2.5 ± 0.3 µM/min
CC1(C)C(C=C(Cl)Cl)C1C(=O)OCc1cccc(Oc2ccccc2)c1 (stereo not drawn),"uncharacterized protein (Anopheles coluzzii, UniProt A0A6E8VQK1)","enzyme activity, inhibitor",Sf9 cell homogenate,"93.02 µM, 0.1667 h, together with: α-naphthyl acetate substrate",reference: no inhibitor,remaining activity,87.6%
O=c1c2ccccc2oc2cc(OCCCCc3ccccc3)ccc12,"ache (Electrophorus electricus, UniProt O42275)",enzyme activity,,"0.73 µM, together with: substrate 0.86 mM",higher = faster reaction,reaction velocity,0.001 a.u.

# Some of these lines once more:
Structure (SMILES),target,assay,system,conditions,how to read,measurement,result
CN(C(=O)n1cnc(-c2ccc[n+]([O-])c2)c1)C1CCCCC1,"CHUK (Homo sapiens, UniProt O15111)",enzyme activity,,50 µM,,inhibition,1%
CC(=O)N[C@@H](CO)C(=O)N[C@@H](Cc1ccccc1)C(=O)N[C@@H](CCC(=O)O)C(=O)N[C@@H](Cc1ccccc1)C(=O)N1CCC[C@H]1C(=O)N1CCC[C@H]1C(=O)N1CCC[C@H]1C(=O)N1CCC[C@H]1C(=O)N[C@H](C(=O)N[C@@H](CCC(=O)O)C(=O)N[C@@H](CC(=O)O)C(=O)N[C@@H](CCC(=O)O)C(=O)N[C@@H](CC(C)C)C(N)=O)[C@@H](C)O,"Vasodilator-stimulated phosphoprotein, EVH1 domain (VASP, Homo sapiens, UniProt P50552)",fluorescence titration,,25 °C,,binding free energy,-26.9 kJ/mol
[Cl][Cd][Cl],"Voltage-dependent P/Q-type calcium channel subunit alpha-1A (Homo sapiens, UniProt O00555)","channel activity, antagonist",human cells,,,IC50,780 nM
